Measurements collected from several papers.
Parts stem from different laboratories: compare values within a part only. Substitutions count along the parent as printed.

Block 1
Target: Transcription factor Sp1 (SP1, Homo sapiens, UniProt P08047, residues 1-785, full length assumed)
Sequence of UniProt P08047 (whole entry, looked up): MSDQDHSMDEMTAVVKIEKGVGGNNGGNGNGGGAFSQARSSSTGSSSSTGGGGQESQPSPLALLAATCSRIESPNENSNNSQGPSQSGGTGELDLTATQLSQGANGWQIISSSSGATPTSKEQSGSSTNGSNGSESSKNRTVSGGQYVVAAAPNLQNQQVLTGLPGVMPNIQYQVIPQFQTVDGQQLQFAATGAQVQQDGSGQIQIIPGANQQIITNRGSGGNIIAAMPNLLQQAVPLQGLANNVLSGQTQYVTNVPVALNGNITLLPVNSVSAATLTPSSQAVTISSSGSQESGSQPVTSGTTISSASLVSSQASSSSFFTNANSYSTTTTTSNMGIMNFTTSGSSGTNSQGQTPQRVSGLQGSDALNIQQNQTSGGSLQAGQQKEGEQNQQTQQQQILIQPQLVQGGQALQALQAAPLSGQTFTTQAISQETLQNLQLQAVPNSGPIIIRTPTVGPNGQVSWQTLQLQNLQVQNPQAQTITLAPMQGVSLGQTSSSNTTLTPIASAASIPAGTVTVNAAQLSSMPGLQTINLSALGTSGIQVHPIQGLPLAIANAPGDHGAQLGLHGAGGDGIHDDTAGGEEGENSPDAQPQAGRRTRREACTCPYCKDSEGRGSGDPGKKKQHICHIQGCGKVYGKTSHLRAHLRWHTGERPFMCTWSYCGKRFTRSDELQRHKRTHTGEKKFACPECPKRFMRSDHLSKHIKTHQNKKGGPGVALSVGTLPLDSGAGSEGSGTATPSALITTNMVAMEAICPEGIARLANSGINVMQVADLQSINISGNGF
Method: protein-binding microarray
Molecule type: double-stranded DNA, one strand shown
Sample: in vitro
Concentration: not given
Notes: k-mer, scored over probes, only values ≥0.25
Reading: higher = stronger binding
`GCCCACCA` has an E-score of 0.251.
The E-score of `ATACTGAC` is reported as 0.287.
For `CACACCCC`, the E-score was 0.408.
`CCTCCTCC` gave an E-score of 0.36.
`CACCTCCC` gave an E-score of 0.267.
The E-score of `AGTGGGAG` is reported as 0.341.
The E-score of `AGTATATA` is reported as 0.348.
`CATATATG` gave an E-score of 0.348.
The E-score of `CACACCTA` is reported as 0.301.
`GGGCGTGA` has an E-score of 0.277.
The E-score of `ACCCCACC` is reported as 0.43.
`TACCCCGA` has an E-score of 0.28.
`AAATAGGG` gave an E-score of 0.282.
`CCGCCCAA` has an E-score of 0.333.
`AATATTAA` gave an E-score of 0.276.
`AACCCGCC` gave an E-score of 0.264.
The E-score of `GTATACAC` is reported as 0.281.
With `GTATTATA` the E-score was 0.259.

Block 2
Target: ABI1, truncated, D143A, DHFR fusion (Arabidopsis thaliana)
Method: DHFR PCA, deep sequencing
Sample: yeast
Notes: methotrexate growth selection, single substitutions
Added: (+)-ABA 710 µM
Reference: wild-type fitted maximum
Reading: higher = stronger binding
Parent: PYL1, truncated, DHFR fusion (Arabidopsis thaliana); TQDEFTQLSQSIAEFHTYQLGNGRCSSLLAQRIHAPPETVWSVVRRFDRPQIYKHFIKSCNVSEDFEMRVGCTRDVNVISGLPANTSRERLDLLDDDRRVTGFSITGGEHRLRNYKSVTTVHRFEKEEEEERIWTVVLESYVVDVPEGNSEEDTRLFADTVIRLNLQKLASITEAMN
Under “relative binding score”, `Y115M` is recorded as 73.5%.
`L164Y` — result for “relative binding score”: 105%.
Under “relative binding score”, `L28Y` is recorded as 84.7%.
`S42Q` — result for “relative binding score”: 103%.
Under “relative binding score”, `G21V` is recorded as 99.8%.
Under “relative binding score”, `R98Y` is recorded as 92.7%.
`E147A`: “relative binding score” 97.1%.
Under “relative binding score”, `E127A` is recorded as 101%.
Under “relative binding score”, `N149M` is recorded as 55.2%.
Under “relative binding score”, `S117H` is recorded as 24.5%.
`R69A`: “relative binding score” 101%.
Under “relative binding score”, `F103T` is recorded as 11.7%.
`L91I`: “relative binding score” 65.6%.

Block 3
Target: CDC34 UBC core domain (UniProt P49427)
Method: yeast two-hybrid
Sample: yeast
Notes: mostly zero background
Reference: not given
Reading: higher = stronger interaction
B1: MKRN1 RING domain (UniProt Q9UHC7); chain FAVQRSKDMVCGICMEVVYEKANPSERRFGILSNCNHTYCLKCIRKWRSAKQFESKIIKSCPECRITSNFVIPSE
B2: TRIM5 RING domain (UniProt Q9C035); chain LREVKLSPEGQKVDHCARHGEKLLLFCQEDGKVICWLCERSQEHRGHHTFLTEEVAREYQVKL
B3: RNF208 RING domain (UniProt Q9H0X6); chain SSAAAGEPLECPTCGHSYNVTQRRPRVLSCLHSVCEQCLQILYESCPKYKFISCPTCRRETVLFTDYG
B4: TRIM24 RING domain (UniProt O15164); chain EAARLNLLDTCAVCHQNIQSRAPKLLPCLHSFCQRCLPAPQRYLMLPAPMLGSAETPPPVPAPGSPVSGSSPFATQVGVIRCPVCSQECAERHII
B5: TRAF5 RING domain (UniProt O00463); chain FVERLEERYKCAFCHSVLHNPHQTGCGHRFCQHCILSLRELNTVPICPVDKEVIKSQEVFK
B6: SH3RF2 RING domain (UniProt Q8TEC5); chain DDLTLLDLLECPVCFEKLDVTAKVLPCQHTFCKPCLQRVFKAHKELRCPECRTPVFSNIEAL
B7: TRIM13 RING domain (UniProt O60858); chain MELLEEDLTCPICCSLFDDPRVLPCSHNFCKKCLEGILEGSVRNSLWRPAPFKCPTCRKETSATGINS
Target sequence (chain): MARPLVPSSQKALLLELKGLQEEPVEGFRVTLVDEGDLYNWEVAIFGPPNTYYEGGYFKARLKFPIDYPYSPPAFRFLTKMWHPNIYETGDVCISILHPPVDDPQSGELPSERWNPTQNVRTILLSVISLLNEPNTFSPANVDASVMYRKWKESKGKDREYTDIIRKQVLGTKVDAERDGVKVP
`B1 (MKRN1 RING domain)` — result for “lacZ reporter activity”: 0.
Under “lacZ reporter activity”, `FQGDVDEDLICPICSGVLEEPVQAPHCEHAFCNACITQWFSQQQTCPVDRSVVTVAHLRP (RNF41 RING domain (UniProt Q9H4P4))` is recorded as 0.
For `QVDKAVFHMQSVKCLKCQEQKRAVLPCQHAALCELCAEGSECPICQPGRAHTLQS (UNK RING domain (UniProt Q9C0B0))`, “lacZ reporter activity” read 0.
For `B2 (TRIM5 RING domain)`, “lacZ reporter activity” read 0.
`B3 (RNF208 RING domain)`: “lacZ reporter activity” 0.
`B4 (TRIM24 RING domain)`: “lacZ reporter activity” 0.
`B5 (TRAF5 RING domain)` — result for “lacZ reporter activity”: 0.
Under “lacZ reporter activity”, `B6 (SH3RF2 RING domain)` is recorded as 0.
For `B7 (TRIM13 RING domain)`, “lacZ reporter activity” read 0.

Block 4
Target: CCNE1, cyclin fold, Cln2 fusion (human)
Method: yeast growth competition, sequencing
Sample: yeast
Notes: weak parent motif
Reference: not given
Reading: higher = stronger binding
Parent: DNAH7 docking peptide (human); HELFQRLDFDNDG
For `HELFQRLAFDNDG [D8A]`, “normalised enrichment score” read 0.118.
For `HELFQALDFDNDG [R6A]`, “normalised enrichment score” read 0.234.
For `HELFQRLDFDNDA [G13A]`, “normalised enrichment score” read 0.184.
For `HELFQRLDFANDG [D10A]`, “normalised enrichment score” read 0.18.
`HELFARLDFDNDG [Q5A]` — result for “normalised enrichment score”: 0.237.
`HELFQRLDADNDG [F9A]`: “normalised enrichment score” 0.104.
Under “normalised enrichment score”, `AELFQRLDFDNDG [H1A]` is recorded as 0.37.

Block 5
Target: JUNB, bZIP domain (human)
Method: DHFR protein complementation
Sample: yeast
Notes: single substitutions, most at no-binding floor
Reference: wild-type JUN-FOS pair
Reading: higher = stronger binding
Parent: JUN, bZIP domain (human); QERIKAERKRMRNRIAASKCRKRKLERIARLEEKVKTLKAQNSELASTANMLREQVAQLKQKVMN; partner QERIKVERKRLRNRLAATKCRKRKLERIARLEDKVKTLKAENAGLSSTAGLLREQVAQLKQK
With `R53Q` the binding fitness was -1.27 natural log.
With `R53H` the binding fitness was -1.39 natural log.
`Q41T` has a binding fitness of -1.33 natural log.
The binding fitness of `L31I` is reported as -1.24 natural log.
With `N42I` the binding fitness was -1.5 natural log.
The binding fitness of `K36I` is reported as -1.32 natural log.
`T37P` has a binding fitness of -1.49 natural log.
For `L52E`, the binding fitness was -1.64 natural log.
The binding fitness of `Q41G` is reported as -1.5 natural log.
`T37I` gave a binding fitness of -0.98 natural log.
The binding fitness of `E54L` is reported as -1.34 natural log.
`A46F` gave a binding fitness of -1.36 natural log.
For `I28T`, the binding fitness was -1.46 natural log.
With `E54N` the binding fitness was -1.36 natural log.
With `L45R` the binding fitness was -1.43 natural log.
`E32I` has a binding fitness of -1.34 natural log.
`R53K` has a binding fitness of -1.21 natural log.
The binding fitness of `Q41P` is reported as -1.36 natural log.
`S43G` gave a binding fitness of -1.19 natural log.
`N42M` has a binding fitness of -1.54 natural log.
With `L45H` the binding fitness was -1.47 natural log.
With `E32W` the binding fitness was -1.51 natural log.
`N42S` has a binding fitness of -1.52 natural log.
`E54V` gave a binding fitness of -1.34 natural log.
With `K36P` the binding fitness was -1.44 natural log.

Block 6
Target: Sal-like protein 4, full length isoform B (SALL4, Homo sapiens, UniProt Q9UJQ4-2, residues 1-616)
Method: universal PBM
Molecule type: double-stranded DNA, one strand shown
Sample: in vitro
Concentration: not given
Notes: 8-mer, flanks averaged, mean of replicates
Reading: higher = stronger binding
`AGAGGGGG` gave an E-score of -0.143.
With `ATTGTCTC` the E-score was 0.00485.
`CGTGGTAA` gave an E-score of 0.0318.
`GTACGTGA` gave an E-score of 0.123.
The E-score of `CCATTTCA` is reported as 0.099.
The E-score of `ATCATGAG` is reported as 0.0837.
The E-score of `CCGTAAGG` is reported as -0.218.
`ATGGAGGG` gave an E-score of -0.0201.
With `ACTAACGC` the E-score was -0.0189.
`AAAGAGGT` gave an E-score of 0.0895.
For `TGAATTAA`, the E-score was 0.291.
`AACGGCAC` has an E-score of -0.164.
For `AGCTCTAA`, the E-score was -0.0518.
For `ATCCGCAG`, the E-score was -0.159.
The E-score of `GCCACTCA` is reported as -0.136.
With `AGAACTGC` the E-score was -0.0408.
For `CCAGACCG`, the E-score was -0.336.
`AGAAATGC` has an E-score of 0.071.
The E-score of `AAGTCTTA` is reported as 0.0322.
For `AATATCAG`, the E-score was 0.256.
For `CTTAGCGC`, the E-score was -0.261.
`AGAAGGTA` has an E-score of 0.165.
`ACTCGGCT` gave an E-score of -0.19.
The E-score of `AGACACCC` is reported as -0.219.
With `CACCAGTG` the E-score was -0.177.

Block 7
Target: Phosphate system positive regulatory protein PHO4, full length, GST-tagged (PHO4, Saccharomyces cerevisiae, UniProt P07270, residues 1-312)
Method: competition protein-binding microarray
Molecule type: double-stranded DNA, one strand shown
Sample: in vitro
Concentration: 2 µM
Notes: whole 60-bp probe, lowest competitor level
Added: Cbf1 competitor, 0.05 µM
Reading: higher = stronger binding
Construct (chain): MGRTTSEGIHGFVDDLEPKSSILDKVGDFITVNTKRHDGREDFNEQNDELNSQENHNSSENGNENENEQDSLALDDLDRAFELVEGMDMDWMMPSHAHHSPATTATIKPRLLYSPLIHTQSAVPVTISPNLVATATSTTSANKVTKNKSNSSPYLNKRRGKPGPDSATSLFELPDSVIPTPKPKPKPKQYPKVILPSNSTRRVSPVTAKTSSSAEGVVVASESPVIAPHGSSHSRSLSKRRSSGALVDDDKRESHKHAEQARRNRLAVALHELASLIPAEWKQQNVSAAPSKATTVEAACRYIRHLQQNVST
For `CTTTCCCGATCTTGAGCTGTGGGTGTAGCACATTTGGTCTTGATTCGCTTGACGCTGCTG`, the fluorescence intensity was 4530 a.u.
`CGTCCTAGTGATTGTCGGGTGGGTGCCATGAGGAAGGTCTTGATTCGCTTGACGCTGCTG` gave a fluorescence intensity of 6320 a.u.
With `ACCTCGGCTGCGCCTTCCGTGATGGCCATCACTGTCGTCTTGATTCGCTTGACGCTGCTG` the fluorescence intensity was 3860 a.u.
For `AAGGTAAGCTATCACCACGTGTTGGTGATTTAAGTTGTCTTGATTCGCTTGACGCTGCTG`, the fluorescence intensity was 13600 a.u.
`CTTTCCCGATCTTGACCAGTGGGTGTAGCACATTTGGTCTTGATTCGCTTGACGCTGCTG` gave a fluorescence intensity of 4610 a.u.
For `ACTCAGTTACTCAGTCAGCTGATGCGATGCGATGTTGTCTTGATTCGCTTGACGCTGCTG`, the fluorescence intensity was 4740 a.u.
`CTTCTGTAAATTTGCCGCGTGGGTGGACGCGCCCCGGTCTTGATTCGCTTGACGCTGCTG` gave a fluorescence intensity of 9620 a.u.
`ACCGTATATATACTACACGCACACACACCAACACAAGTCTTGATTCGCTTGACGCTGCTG` gave a fluorescence intensity of 9210 a.u.
For `AAGCTAAAGCAGAGGAACGTGACGGACGCGCATTAAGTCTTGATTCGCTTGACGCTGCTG`, the fluorescence intensity was 12900 a.u.
`GCCCTCAAAAAACACAACGTGCGGATAACGACAACGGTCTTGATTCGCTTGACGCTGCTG` gave a fluorescence intensity of 13200 a.u.
`CTAACGAAGGTTTGTCACAGAACTTACAAGCCAAGTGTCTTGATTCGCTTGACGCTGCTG` gave a fluorescence intensity of 2800 a.u.
The fluorescence intensity of `CTTCTCGAATCCTAAGGCGTGCAAAGATATGAGAATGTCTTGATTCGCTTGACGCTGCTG` is reported as 8360 a.u.
For `AAGAGAAAAAGTACAAACGTGTAGAGCAGGATGATCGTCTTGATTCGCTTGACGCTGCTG`, the fluorescence intensity was 10100 a.u.
`CGGGGTTAAGTTTGCTCAGTGGGTGGCTTGCAGCAGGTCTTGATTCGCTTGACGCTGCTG` gave a fluorescence intensity of 3960 a.u.
`TGCGCAACAACTTGGCGTGTGGGTGTATGTCTAGAAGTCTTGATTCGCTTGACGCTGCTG` has a fluorescence intensity of 6620 a.u.
With `CTATCCAGCCACTCCCATGTGATAACGGTCGAAGTGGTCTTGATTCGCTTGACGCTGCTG` the fluorescence intensity was 9600 a.u.
The fluorescence intensity of `AGGTTAACCTTTAAATATAAATATAGTAATCTTCATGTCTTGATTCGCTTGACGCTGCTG` is reported as 3080 a.u.
`TGATGTGAGTGCACTTAGTACTGATTTAGTGAGAGAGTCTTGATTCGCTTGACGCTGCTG` gave a fluorescence intensity of 4860 a.u.
